Assay results gathered from unrelated publications.
A part holds a random share of what one study measured.
Sequence of UniProt O75385 (whole entry, looked up): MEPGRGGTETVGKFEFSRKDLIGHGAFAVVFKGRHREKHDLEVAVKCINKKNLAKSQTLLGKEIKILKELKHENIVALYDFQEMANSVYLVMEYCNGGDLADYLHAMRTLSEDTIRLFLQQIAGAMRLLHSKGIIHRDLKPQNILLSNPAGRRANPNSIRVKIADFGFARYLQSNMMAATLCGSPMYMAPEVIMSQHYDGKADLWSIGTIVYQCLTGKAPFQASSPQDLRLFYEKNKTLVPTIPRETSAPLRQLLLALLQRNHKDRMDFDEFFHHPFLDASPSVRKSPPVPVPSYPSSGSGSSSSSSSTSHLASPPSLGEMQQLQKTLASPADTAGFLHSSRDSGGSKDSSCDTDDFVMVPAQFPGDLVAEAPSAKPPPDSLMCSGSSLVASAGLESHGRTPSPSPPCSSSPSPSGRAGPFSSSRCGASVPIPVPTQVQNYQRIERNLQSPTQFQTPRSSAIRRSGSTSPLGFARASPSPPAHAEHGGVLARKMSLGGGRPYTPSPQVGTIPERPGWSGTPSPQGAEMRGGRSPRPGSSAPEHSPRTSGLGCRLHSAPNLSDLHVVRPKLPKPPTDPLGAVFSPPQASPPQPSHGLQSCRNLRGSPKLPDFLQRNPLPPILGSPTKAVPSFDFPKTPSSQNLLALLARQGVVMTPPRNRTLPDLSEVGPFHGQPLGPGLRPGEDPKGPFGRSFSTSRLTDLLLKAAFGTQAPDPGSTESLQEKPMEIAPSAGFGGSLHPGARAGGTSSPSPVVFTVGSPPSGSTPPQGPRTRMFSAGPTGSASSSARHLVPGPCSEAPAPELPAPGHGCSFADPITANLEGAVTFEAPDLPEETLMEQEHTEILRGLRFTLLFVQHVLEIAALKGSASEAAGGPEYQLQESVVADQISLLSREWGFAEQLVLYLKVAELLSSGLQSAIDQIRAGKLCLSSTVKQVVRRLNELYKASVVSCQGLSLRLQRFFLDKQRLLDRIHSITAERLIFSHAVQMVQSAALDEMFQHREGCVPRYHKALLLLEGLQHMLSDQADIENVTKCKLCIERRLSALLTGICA
Sequence of UniProt Q9Y2H1 (whole entry, looked up): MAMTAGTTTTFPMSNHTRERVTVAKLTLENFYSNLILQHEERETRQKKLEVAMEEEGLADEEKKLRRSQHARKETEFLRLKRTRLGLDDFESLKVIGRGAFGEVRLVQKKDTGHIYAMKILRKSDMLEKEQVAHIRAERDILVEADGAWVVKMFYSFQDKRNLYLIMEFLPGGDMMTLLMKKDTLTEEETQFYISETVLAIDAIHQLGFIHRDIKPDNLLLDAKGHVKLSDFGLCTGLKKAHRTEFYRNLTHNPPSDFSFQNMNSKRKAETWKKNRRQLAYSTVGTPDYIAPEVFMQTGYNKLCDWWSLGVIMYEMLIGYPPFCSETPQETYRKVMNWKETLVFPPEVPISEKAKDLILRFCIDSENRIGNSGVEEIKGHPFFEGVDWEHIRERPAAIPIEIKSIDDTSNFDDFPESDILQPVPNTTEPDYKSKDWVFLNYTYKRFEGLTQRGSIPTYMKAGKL
Sequence of UniProt P25098 (whole entry, looked up): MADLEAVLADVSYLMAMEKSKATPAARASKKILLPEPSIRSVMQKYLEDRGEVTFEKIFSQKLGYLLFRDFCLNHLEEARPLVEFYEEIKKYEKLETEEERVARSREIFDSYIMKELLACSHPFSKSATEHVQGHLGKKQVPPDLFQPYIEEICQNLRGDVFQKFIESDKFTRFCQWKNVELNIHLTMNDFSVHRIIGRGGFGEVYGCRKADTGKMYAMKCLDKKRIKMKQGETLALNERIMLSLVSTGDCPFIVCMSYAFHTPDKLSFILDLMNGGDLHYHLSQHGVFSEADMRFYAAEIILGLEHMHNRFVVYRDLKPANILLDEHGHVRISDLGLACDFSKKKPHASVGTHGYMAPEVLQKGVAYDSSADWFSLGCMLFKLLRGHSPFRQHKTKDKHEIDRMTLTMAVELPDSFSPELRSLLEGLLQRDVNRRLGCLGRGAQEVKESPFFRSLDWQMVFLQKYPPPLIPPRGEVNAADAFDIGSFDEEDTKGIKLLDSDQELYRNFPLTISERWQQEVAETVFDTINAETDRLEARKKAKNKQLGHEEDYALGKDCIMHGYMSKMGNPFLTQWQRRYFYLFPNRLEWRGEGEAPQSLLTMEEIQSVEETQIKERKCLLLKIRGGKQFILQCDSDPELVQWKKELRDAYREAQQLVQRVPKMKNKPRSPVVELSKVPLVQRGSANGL
Sequence of UniProt P49137 (whole entry, looked up): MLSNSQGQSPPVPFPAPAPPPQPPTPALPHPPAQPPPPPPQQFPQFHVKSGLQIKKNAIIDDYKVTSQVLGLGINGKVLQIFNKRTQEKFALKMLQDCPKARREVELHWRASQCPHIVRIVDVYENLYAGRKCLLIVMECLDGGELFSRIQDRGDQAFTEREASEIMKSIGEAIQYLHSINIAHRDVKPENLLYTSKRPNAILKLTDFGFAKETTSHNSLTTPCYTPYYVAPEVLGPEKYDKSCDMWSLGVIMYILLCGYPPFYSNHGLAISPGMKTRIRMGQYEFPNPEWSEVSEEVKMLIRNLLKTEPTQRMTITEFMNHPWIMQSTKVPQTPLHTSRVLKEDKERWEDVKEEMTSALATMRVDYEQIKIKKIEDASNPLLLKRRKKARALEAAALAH
Sequence of UniProt Q96PN8 (whole entry, looked up): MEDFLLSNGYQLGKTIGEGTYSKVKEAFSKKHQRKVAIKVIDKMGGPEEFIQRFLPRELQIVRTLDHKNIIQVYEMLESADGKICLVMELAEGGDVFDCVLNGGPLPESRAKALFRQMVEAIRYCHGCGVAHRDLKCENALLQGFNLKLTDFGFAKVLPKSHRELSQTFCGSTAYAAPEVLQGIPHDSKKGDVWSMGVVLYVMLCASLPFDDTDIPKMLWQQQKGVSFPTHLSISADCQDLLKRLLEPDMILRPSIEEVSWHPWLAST
Sequence of UniProt Q14680 (whole entry, looked up): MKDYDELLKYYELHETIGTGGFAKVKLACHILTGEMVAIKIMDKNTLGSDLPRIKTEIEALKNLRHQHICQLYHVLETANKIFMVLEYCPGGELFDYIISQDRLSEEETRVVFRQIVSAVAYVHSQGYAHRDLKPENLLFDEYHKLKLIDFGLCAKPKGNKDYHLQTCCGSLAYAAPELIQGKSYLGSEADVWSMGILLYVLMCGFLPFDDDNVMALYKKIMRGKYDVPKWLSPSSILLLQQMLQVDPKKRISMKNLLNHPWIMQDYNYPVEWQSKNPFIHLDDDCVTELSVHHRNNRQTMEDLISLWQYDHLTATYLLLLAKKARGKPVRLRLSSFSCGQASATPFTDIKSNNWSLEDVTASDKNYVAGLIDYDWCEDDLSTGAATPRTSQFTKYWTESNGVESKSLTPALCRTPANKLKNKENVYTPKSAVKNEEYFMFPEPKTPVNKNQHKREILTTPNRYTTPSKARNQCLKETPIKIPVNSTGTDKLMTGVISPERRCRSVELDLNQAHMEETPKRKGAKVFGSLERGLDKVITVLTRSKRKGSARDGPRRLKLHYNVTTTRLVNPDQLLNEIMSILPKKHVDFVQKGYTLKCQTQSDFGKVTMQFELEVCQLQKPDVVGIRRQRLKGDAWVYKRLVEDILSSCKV

Sample 1 — organism: Sarcocystis neurona; read-out: parasite activity; tested at: 10 µM; time: 96 h
Under activity class, `NC(=O)c1cnccn1` is recorded as “inactive”.
`CC1=C(CC(=O)O)c2cc(F)ccc2/C1=C\c1ccc([S+](C)[O-])cc1` (stereo not shown) — result for activity class: “inactive”.
For `O=C1NC(=O)C(c2ccccc2)(c2ccccc2)N1`, activity class read “inactive”.
Under activity class, `O=c1[nH]cnc2c1ncn2[C@H]1CC[C@@H](CO)O1` is recorded as “inactive”.
`CC[C@@]1(O)C(=O)OCc2c1cc1n(c2=O)Cc2cc3c(CN(C)C)c(O)ccc3nc2-1` — result for activity class: “inactive”.
For `CCCCc1oc2ccccc2c1C(=O)c1cc(I)c(OCCN(CC)CC)c(I)c1`, activity class read “inactive”.
`OC[C@H]1O[C@@H](Oc2cc(O)cc(/C=C/c3ccc(O)cc3)c2)[C@H](O)[C@@H](O)[C@@H]1O`: activity class “inactive”.
`CCC[C@@H]1C[C@@H](C(=O)N[C@@H]([C@H]2O[C@H](SC)[C@H](O)[C@@H](O)[C@H]2O)[C@@H](C)O)N(C)C1` — result for activity class: “inactive”.

Sample 2 — read-out: cell-free assay; technique: competition with immobilised ligand; tested at: 0.1 µM
Structure (SMILES): C[C@@H]1CN(c2cc(-c3n[nH]c4ccc(OC5(C)CC5)cc34)ncn2)C[C@H](C)O1
The remaining binding was 91% (CAMK1G (Homo sapiens, UniProt Q96NX5)).
For MAPKAPK2 (Homo sapiens, UniProt P49137): remaining binding read 96%.
GRK2 (Homo sapiens, UniProt P25098) — remaining binding: 86%.
STK38L (Homo sapiens, UniProt Q9Y2H1) — remaining binding: 85%.
It gave 80% for remaining binding (ULK1 (Homo sapiens, UniProt O75385)).
HIPK3 (Homo sapiens, UniProt Q9H422) — remaining binding: 73%.
It gave 88% for remaining binding (MELK (Homo sapiens, UniProt Q14680)).
It gave 100% for remaining binding (Aurora kinase C (AURKC, Homo sapiens, UniProt Q9UQB9)).

Sample 3 — mode: inhibitor; tested at: 5 µM; baseline: vehicle
SMILES: O=C1NC(=O)C(c2cn(-c3ccccc3)nc2-c2ccc(F)cc2)N1 (stereo not shown)
TSSK3 (Homo sapiens, UniProt Q96PN8); kinase-CDC37 interaction; human cells — “log2 fold change”: 0.101.
For EGFR (Homo sapiens, UniProt P00533, L858R); human cells: “log2 fold change” read -0.415.
FLT3 (Homo sapiens, UniProt P36888); cell-based kinome screen; human cells — “log2 fold change”: 0.207.
PRKAA1 (Homo sapiens, UniProt Q13131); kinase–CDC37 interaction; kinome plate 1@E05 — “log2 fold change”: -0.25.

Sample 4 — read-out: enzyme activity; mode: inhibitor; tested at: 0.5 µM; baseline: control
Target: Serine/threonine-protein kinase Nek1 (NEK1, Homo sapiens, UniProt Q96PY6)
Sequence of UniProt Q96PY6 (whole entry, looked up): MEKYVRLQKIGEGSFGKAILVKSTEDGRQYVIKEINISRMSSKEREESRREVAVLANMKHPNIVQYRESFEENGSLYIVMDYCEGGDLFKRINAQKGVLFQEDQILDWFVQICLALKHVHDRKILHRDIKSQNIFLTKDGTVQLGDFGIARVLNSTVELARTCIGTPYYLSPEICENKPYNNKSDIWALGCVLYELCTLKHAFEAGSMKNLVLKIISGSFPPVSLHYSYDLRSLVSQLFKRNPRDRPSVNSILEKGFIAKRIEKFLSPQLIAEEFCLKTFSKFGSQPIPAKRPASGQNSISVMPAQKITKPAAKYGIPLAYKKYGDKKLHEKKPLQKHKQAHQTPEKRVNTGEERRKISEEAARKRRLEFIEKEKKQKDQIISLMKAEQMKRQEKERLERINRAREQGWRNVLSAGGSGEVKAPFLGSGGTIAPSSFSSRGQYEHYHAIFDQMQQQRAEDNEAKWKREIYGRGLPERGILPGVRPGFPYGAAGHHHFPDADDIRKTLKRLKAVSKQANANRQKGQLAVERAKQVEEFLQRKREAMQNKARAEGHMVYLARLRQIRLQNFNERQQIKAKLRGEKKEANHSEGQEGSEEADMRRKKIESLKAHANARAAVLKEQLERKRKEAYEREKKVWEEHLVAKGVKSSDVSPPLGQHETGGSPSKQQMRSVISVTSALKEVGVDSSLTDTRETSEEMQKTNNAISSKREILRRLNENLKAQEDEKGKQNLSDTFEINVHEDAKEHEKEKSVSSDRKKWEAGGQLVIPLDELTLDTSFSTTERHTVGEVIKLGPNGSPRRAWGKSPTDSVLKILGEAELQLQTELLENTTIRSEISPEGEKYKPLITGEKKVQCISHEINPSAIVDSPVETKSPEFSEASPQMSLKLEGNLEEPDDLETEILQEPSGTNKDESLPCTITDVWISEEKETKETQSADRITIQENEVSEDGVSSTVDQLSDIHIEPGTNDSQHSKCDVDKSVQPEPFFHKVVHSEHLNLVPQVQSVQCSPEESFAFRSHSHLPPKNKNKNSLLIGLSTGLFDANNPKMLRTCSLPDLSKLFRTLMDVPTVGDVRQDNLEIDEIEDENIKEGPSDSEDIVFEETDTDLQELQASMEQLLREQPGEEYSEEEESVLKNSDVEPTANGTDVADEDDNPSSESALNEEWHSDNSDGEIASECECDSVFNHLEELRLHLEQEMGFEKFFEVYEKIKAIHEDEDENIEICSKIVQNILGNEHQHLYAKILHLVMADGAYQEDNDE
For `COc1cc2ncnc(Nc3ccc(F)c(Cl)c3)c2cc1OCCCN1CCOCC1`, the remaining activity was 90.4%.
`O=C1NC(=O)C(c2cn(CCCO)c3ncccc23)=C1c1cnccn1` has a remaining activity of 91.9%.
`COc1cc2nccc(Oc3ccc(NC(=S)NC(=O)c4ccccc4C)cc3)c2cc1OC` has a remaining activity of 96.7%.
`Nc1[nH]nc2nc3ccccc3nc12` gave a remaining activity of 91.7%.
With `C#Cc1cccc(Nc2ncnc3cc(OCCOC)c(OCCOC)cc23)c1` the remaining activity was 73.8%.
For `OCC(O)CCON=C1C(c2c(O)[nH]c3ccccc23)=Nc2ccccc21` (stereo not shown), the remaining activity was 92.9%.
`Cc1nc(-c2ccccc2)c(-c2ccncc2)o1` has a remaining activity of 103%.
`CN(C)c1ccc(C=C2C(=O)Nc3ccccc32)cc1` has a remaining activity of 112%.
For `N#CC(C#N)=C(N)/C(C#N)=C/c1ccc(O)cc1`, the remaining activity was 95.7%.
`COc1ccc(OC)c2c(=S)c3ccccc3[nH]c12` gave a remaining activity of 102%.
The remaining activity of `O=C(CCCc1ccc(-c2ccccc2F)cc1)Nc1ccc(O)cc1` is reported as 100%.
`O=C(O)c1ccc2c3c1cccc3c(=O)n1c3ccccc3nc21` gave a remaining activity of 87.8%.
`O=C1NC(=O)C(c2cn(CCCn3ccnc3)c3ccccc23)=C1Nc1ccccc1` has a remaining activity of 114%.
For `Cc1ccc(NC(=O)c2ccc(CN3CCN(C)CC3)cc2)cc1Nc1nc(-c2cccnc2)cs1`, the remaining activity was 116%.

Excerpt of the above (sample 2):
STK38L (Homo sapiens, UniProt Q9Y2H1) — remaining binding: 85%.
It gave 80% for remaining binding (ULK1 (Homo sapiens, UniProt O75385)).
HIPK3 (Homo sapiens, UniProt Q9H422) — remaining binding: 73%.
It gave 88% for remaining binding (MELK (Homo sapiens, UniProt Q14680)).
